Results pooled from the literature.
Numbered parts are unrelated; each lists some results of a single study.

Block 1 — technique: protein-binding microarray; form: double-stranded DNA, one strand shown; medium: in vitro; concentration: 940 nM top; setting: 60-bp whole probe; together with: salmon DNA 0.4 mg/ml; reference: random background probes; reading: higher = stronger binding; all sequences stand within: GCCTAGCAC … GTCTTGATTCGCTTGACGCTGCTG
Target: Interferon regulatory factor 5, full length, phosphomimetic (IRF5, Homo sapiens, UniProt Q13568-2, residues 1-514, S451D/S453D/S456D/S462D)
| Oligonucleotide | fitted relative affinity [z-score] |
| --- | --- |
| TCACCTCTTTTTTTGGTACTGTGCTAG | 1.43 |
| GACGGTAGCCTACTGCTGACGTGCTAG | -0.858 |
| TTATATATCGGGACTGGATTAGTGCTA | 0.271 |
| GACGGTATCGACTTTCGGGTCGTGCTA | 5.6 |
| TTAGATTTCGGGTTTGGATTAGTGCTA | 1.29 |

Block 2 — technique: protein binding microarray; form: double-stranded DNA, one strand shown; medium: in vitro; concentration: not given; reference: not given; reading: higher = stronger binding
Target: Histone acetyltransferase KAT6A, both winged helices, GST fusion (KAT6A, Homo sapiens, UniProt Q92794, residues 1-181)
Setting: 8-mer, flanks averaged, mean of 2 arrays, mostly near background
Residues (chain): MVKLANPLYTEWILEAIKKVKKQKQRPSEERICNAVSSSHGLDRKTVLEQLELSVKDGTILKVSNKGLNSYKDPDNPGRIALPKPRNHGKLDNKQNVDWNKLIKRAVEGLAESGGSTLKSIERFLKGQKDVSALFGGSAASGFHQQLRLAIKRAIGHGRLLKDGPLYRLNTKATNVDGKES
| Oligonucleotide | E-score |
| --- | --- |
| ATCTCTGA | -0.193 |
| ACGCCAAG | -0.0834 |
| ATGCTCTC | -0.164 |
| CGCAGCGA | 0.138 |
| ATGTTTTA | -0.141 |
| TAAGCAAA | -0.0911 |

Block 3 — technique: RNAcompete; form: RNA; medium: in vitro; concentration: 20 nM; setting: 7-mer, probes averaged, single round; reference: mean of 7-mers; reading: higher = stronger binding
Target: PABPC1L2, full length, GST fusion (mouse, UniProt A0ABA7IW68)
Target sequence (chain): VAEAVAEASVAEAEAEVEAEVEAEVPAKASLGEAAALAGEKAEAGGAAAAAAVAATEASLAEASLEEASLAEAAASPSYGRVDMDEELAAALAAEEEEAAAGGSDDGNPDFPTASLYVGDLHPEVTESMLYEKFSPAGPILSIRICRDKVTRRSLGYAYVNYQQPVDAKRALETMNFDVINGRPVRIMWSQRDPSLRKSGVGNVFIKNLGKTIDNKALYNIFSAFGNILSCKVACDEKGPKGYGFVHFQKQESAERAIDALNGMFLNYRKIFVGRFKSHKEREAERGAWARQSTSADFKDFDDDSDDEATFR
| Oligonucleotide | 7-mer Z-score |
| --- | --- |
| CGCUUGA | -0.179 |
| CUACAAG | -0.0953 |
| CGGCAUG | -0.148 |
| UGCAUGA | 0.0134 |
| CCACGAC | -0.119 |
| GCACUGA | 0.00979 |

Mixed results
| Substance | target | test | system | setting | scale | measurement | value |
| --- | --- | --- | --- | --- | --- | --- | --- |
| PhoQ, residues 284 288 289 292 302 303 TTSMTC | PhoP, residues 12 14 15 18 19 SGWQI (Escherichia coli, UniProt P23836) | Sort-seq, item: YFP reporter | E. coli | PhoQ-PhoP variant library, together with: 10 µM Mg2+ | reference: high Mg2+ state, higher = stronger signaling | fold induction | 6.25 |

Some of these lines once more (block 1):
| Oligonucleotide | fitted relative affinity [z-score] |
| --- | --- |
| GACGGTAGCCTACTGCTGACGTGCTAG | -0.858 |
| TTATATATCGGGACTGGATTAGTGCTA | 0.271 |
